Values quoted from earlier work as cited in several papers.
Compare with care: the assays were run in different laboratories. ± marks the error that the study gave. Values after ≈ are worked out from the molar mass of the structure shown.
Chain of UniProt Q9UBE8 (whole entry, looked up): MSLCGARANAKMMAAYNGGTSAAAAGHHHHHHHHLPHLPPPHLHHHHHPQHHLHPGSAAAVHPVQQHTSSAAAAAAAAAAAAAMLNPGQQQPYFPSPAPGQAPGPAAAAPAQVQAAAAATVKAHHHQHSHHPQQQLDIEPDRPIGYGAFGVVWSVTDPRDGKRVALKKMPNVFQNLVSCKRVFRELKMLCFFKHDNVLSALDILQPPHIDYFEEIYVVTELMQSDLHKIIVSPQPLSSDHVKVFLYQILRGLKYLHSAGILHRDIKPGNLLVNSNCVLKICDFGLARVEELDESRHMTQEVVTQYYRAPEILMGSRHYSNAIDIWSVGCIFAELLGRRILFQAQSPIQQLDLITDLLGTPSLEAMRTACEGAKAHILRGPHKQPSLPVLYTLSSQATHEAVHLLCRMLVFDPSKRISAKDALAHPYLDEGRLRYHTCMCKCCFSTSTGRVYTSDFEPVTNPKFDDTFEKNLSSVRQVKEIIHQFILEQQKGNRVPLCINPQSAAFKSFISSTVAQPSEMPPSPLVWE

Structure (SMILES)	target or system	test	test system	conditions	scale	quantity	result
CC(C)Oc1ccc(-c2c[nH]cc2CN(C)CCN)cc1	PRMT7	enzyme activity, inhibitor	–	concentration not given	–	activity	inactive
Nc1ccc(-c2ccc3cc(OCCF)ccc3n2)cc1	synthetic tau aggregates	binding	–	–	–	Bmax	0.002 mol/mol
CC1(C)S[C@@H]2[C@H](NC(=O)[C@H](N)c3ccccc3)C(=O)N2[C@H]1C(=O)O	Klebsiella pneumoniae	–	clinical isolate RKI-No_328/16	–	–	MIC	> 16 µg/mL
CC[C@H](C)C(=O)O[C@H]1C[C@H](O)C=C2C=C[C@H](C)[C@H](CC[C@@H](O)C[C@@H](O)CC(=O)O)[C@H]21	NR4A2 (Nurr1)	cellular	–	concentration not given	–	activity	inactive
COc1cc(Nc2c(C#N)cnc3cc(OCCCN4CCN(C)CC4)c(OC)cc23)c(Cl)cc1Cl	CSNK1G3	kinase activity, inhibitor	–	0.5 µM	–	inhibition	2%
N=C(NCCCCC(N)C(N)=O)NCCCSC[C@H]1O[C@@H](n2cnc3c(N)ncnc32)[C@H](O)[C@@H]1O (stereo partly shown)	PRMT1	enzyme activity, inhibitor	–	–	relative to: G9a IC50 over PRMT1 IC50	selectivity ratio	≥ 33 fold
Nc1cc(C(F)(F)F)c(-c2nc(N3CCOCC3)nc(N3CCOCC3)n2)cn1	NLK (Homo sapiens, UniProt Q9UBE8)	enzyme activity	–	10 µM	relative to: untreated	remaining activity	99%
COc1cc(CCC(=O)CCCCc2ccccc2)ccc1O	SERCA2a	activator	–	concentration not given	relative to: control	maximal SERCA2a activity increase	25 to 43%
CCCCC/C=C\C[C@H](O)/C=C/C=C\C/C=C\CCCC(=O)O	GPR39	–	–	concentration not given	–	activity	no effect
CCCCCCCC(=O)c1cc(OC)c(OC)c(OC)c1CC(=O)OCC	NR4A2 (Nurr1)	cellular	–	concentration not given	–	activity	inactive
Oc1c2ccccc2c2c3c(cccc13)N=N2	CSNK1G3	kinase activity, inhibitor	–	0.5 µM	–	inhibition	-17%
CS(=O)(=O)c1ccc(Nc2ncnc3sc(Nc4c(Cl)cccc4Cl)nc23)cc1	TRPV1	calcium flux, antagonist	HEK293	with: capsaicin	–	IC50	5 nM
Cc1onc(-c2ccccc2)c1-c1ccc(S(N)(=O)=O)cc1	NR4A3 (NOR-1)	cellular	–	concentration not given	–	activity	inactive
CC(C)[C@H](CO)Nc1nc(Nc2cc(N)cc(Cl)c2)c2ncn(C(C)C)c2n1	CSNK1G2	kinase activity, inhibitor	–	0.5 µM	–	inhibition	65%
Nc1ncnc2c1ncn2[C@@H]1O[C@H](COP(=O)(O)CP(=O)(O)OP(=O)(O)O)[C@@H](O)[C@H]1O	P2X purinoceptor	–	–	reference compound	–	Hill coefficient	1.1
CCCCC/C=C\C/C=C\C/C=C\C/C=C\CCCC(=O)O	CYP4F3A (human)	substrate	insect cell microsomes	–	–	kcat	0.192 s⁻¹
C[C@@H]1CN(c2ncccc2C(F)(F)F)CCN1C(=O)Nc1ccc(C(F)(F)F)cc1	TRPV1	calcium flux, antagonist	HEK293	with: capsaicin	–	IC50	17 nM
COc1ccc(-c2noc(CC(=O)O)c2-c2ccc(OC)cc2)cc1	NR4A2 (Nurr1)	cellular	–	concentration not given	–	activity	inactive
O=C(NCc1cccc(C(F)(F)F)c1)Nc1cccc2cnccc12	TRPV1	calcium flux, antagonist	HEK293	with: capsaicin	–	IC50	11 nM
COc1ccccc1Oc1cccc(CN2CCC(NC(=O)C(CCN3CCCC3)c3ccccc3)CC2)c1 (stereo not shown)	human CCR8 S110A mutant (TM3)	IP accumulation, agonist	–	–	–	EC50	1.6 nM
CC(C)(O)c1cnc2ncc(-c3ccc(F)c(-c4c(F)cccc4C#N)c3)n2n1	rat GABAA benzodiazepine site	–	rat	oral, 0.3 mg/kg	–	receptor occupancy	61%
CC(C)n1cnc2c(Nc3cccc(Cl)c3)nc(NCCO)nc21	CSNK1G2	kinase activity, inhibitor	–	0.5 µM	–	inhibition	79%
Cc1cccc(-c2[nH]c(CNc3ccccc3F)nc2-c2ccc3ncnn3c2)n1	NTCP	transport activity, inhibitor	–	up to 100 µM	–	inhibition	no inhibition

Structure (SMILES)	target or system	test	test system	conditions	scale	quantity	result
CCOC(=O)C1=CC(C)(C(=O)c2ccccc2)CCC1=O (stereo not shown)	RSK2 C-terminal kinase domain	–	–	–	–	dissociation half-life	42 min
COCCOc1nc(C(F)(F)F)ccc1CNC(=O)Nc1cccc2[nH]ncc12	TRPV1	calcium flux, antagonist	HEK293	with: capsaicin	–	IC50	18 nM
C[C@H]1COCCN1c1nc(-c2cnc(N)cc2C(F)F)nc(N2CCOCC2)n1	HCT-15	–	–	–	–	GI50	402 nM
CCNS(=O)(=O)c1ccc(OC)cc1C1(O)CCN(Cc2cccc(Oc3ccccc3OC)c2)CC1	human CCR8 V109A mutant (TM3)	IP accumulation, agonist	–	–	–	EC50	8 nM
Cc1cc(NC(=O)c2cccc(NC(=O)/C=C/CN(C)C)c2)ccc1Nc1nccc(-c2cccnc2)n1	JNK3	–	–	1 µM	relative to: control	remaining activity	0%
Oc1ccc(-c2nc(-c3ccncc3)c(-c3ccc(F)cc3)[nH]2)cc1	CSNK1G3	kinase activity, inhibitor	–	0.5 µM	–	inhibition	-2%
Oc1cc(O)cc(/C=C/c2ccc(O)c(O)c2)c1	SIRT5	deacetylase activity, activator, fluorogenic peptide substrate	–	concentration not given	relative to: untreated	activation	≤ 2.5 fold
CC(C)(O/N=C(\C(=O)N[C@@H]1C(=O)N2C(C(=O)[O-])=C(C[N+]3(CCNC(=O)c4ccc(O)c(O)c4Cl)CCCC3)CS[C@H]12)c1csc(N)n1)C(=O)O	KPC-33	hydrolysis by enzyme, substrate	–	–	–	kcat	0.006 s⁻¹
[Ca+2]	rod CNG channel	cGMP-gated current	intact rod outer segments	with: fixed cGMP	–	K1/2 for Ca2+	~50 nM
c1cc(-c2cnn3cc(-c4ccc(OCCN5CCCCC5)cc4)cnc23)ccn1	CSNK1G3	kinase activity, inhibitor	–	0.5 µM	–	inhibition	14%
COc1ccc2nc([S@@+]([O-])Cc3ncc(C)c(OC)c3C)[nH]c2c1	CYP2C19	mechanism-based inhibitor	–	–	–	KI	300 nM
COc1ccccc1Oc1cccc(CN2CCC(NC(=O)C3CC(=O)Nc4ccccc43)CC2)c1 (stereo not shown)	human CCR8 F88A mutant (TM2)	IP accumulation, agonist	–	–	–	EC50	94 nM
O=C(NCC(Cc1ccccc1)c1ccc(F)cc1)Nc1cccc2cnccc12 (stereo not shown)	TRPV1	calcium flux, antagonist	HEK293	with: capsaicin	–	IC50	5 nM
COc1ccccc1Oc1cccc(CN2CCC(O)(c3ccccc3C(=O)O)CC2)c1	human CCR8 K195A mutant (TM5)	IP accumulation, agonist	–	–	–	EC50	47 nM
Cl.Nc1nccc(-c2c(-c3ccc(F)cc3)ncn2C2CCNCC2)n1	CSNK1G2	kinase activity, inhibitor	–	0.5 µM	–	inhibition	-19%
COc1ccc2c(c1)CCC(NC(=O)Nc1cccc3cnccc13)C2Cc1ccccc1 (stereo not shown)	TRPV1	calcium flux, antagonist	HEK293	with: capsaicin	–	IC50	25 nM
CNC(C)C1CCC(N)C(OC2C(N)CC(N)C(OC3OCC(C)(O)C(NC)C3O)C2O)O1 (stereo not shown)	Klebsiella pneumoniae	–	clinical isolate RKI-No_328/16	–	–	MIC	4 µg/mL (≈ 8.38 µM)
O=C(NCc1cccc(C(F)(F)F)c1)Nc1cccc2ccc(O)cc12	TRPV1	calcium flux, antagonist	HEK293	with: capsaicin	–	IC50	26 nM
O=C(Nc1cnc2ccccc2c1)c1cc2[nH]ccc2cc1Cl	NR4A3 (NOR-1)	agonist, cellular	–	–	–	EC50	70 ± 30 nM
CC(C)(C)n1nc(Cc2cccc3ccccc23)c2c(N)ncnc21	CSNK1G3	kinase activity, inhibitor	–	0.5 µM	–	inhibition	-1%
COc1ccccc1Oc1cccc(CN2CCC3(CC2)C(=O)NCN3CCc2ccccc2)c1	human CCR8 F88A mutant (TM2)	IP accumulation, agonist	–	–	–	EC50	108 nM
O=C(Nc1ccc(C(F)(F)F)cn1)c1ccc(-c2ncccc2C(F)(F)F)cc1	TRPV1	calcium flux, antagonist	HEK293	with: capsaicin	–	IC50	24 nM
CCc1ccc(NC(=O)Nc2c[nH]c3ccccc23)cc1	human STING HAQ allele	–	–	–	relative to: HAQ over wild type	inhibition ratio	8

Excerpt of the above:
Structure (SMILES)	target or system	test	test system	conditions	scale	quantity	result
O=C(NCc1cccc(C(F)(F)F)c1)Nc1cccc2ccc(O)cc12	TRPV1	calcium flux, antagonist	HEK293	with: capsaicin	–	IC50	26 nM
COc1ccccc1Oc1cccc(CN2CCC(NC(=O)C(CCN3CCCC3)c3ccccc3)CC2)c1 (stereo not shown)	human CCR8 S110A mutant (TM3)	IP accumulation, agonist	–	–	–	EC50	1.6 nM
CC1(C)S[C@@H]2[C@H](NC(=O)[C@H](N)c3ccccc3)C(=O)N2[C@H]1C(=O)O	Klebsiella pneumoniae	–	clinical isolate RKI-No_328/16	–	–	MIC	> 16 µg/mL
Cc1cc(NC(=O)c2cccc(NC(=O)/C=C/CN(C)C)c2)ccc1Nc1nccc(-c2cccnc2)n1	JNK3	–	–	1 µM	relative to: control	remaining activity	0%
Oc1cc(O)cc(/C=C/c2ccc(O)c(O)c2)c1	SIRT5	deacetylase activity, activator, fluorogenic peptide substrate	–	concentration not given	relative to: untreated	activation	≤ 2.5 fold
CC(C)(O)c1cnc2ncc(-c3ccc(F)c(-c4c(F)cccc4C#N)c3)n2n1	rat GABAA benzodiazepine site	–	rat	oral, 0.3 mg/kg	–	receptor occupancy	61%
COc1ccccc1Oc1cccc(CN2CCC(NC(=O)C3CC(=O)Nc4ccccc43)CC2)c1 (stereo not shown)	human CCR8 F88A mutant (TM2)	IP accumulation, agonist	–	–	–	EC50	94 nM
